Results of several laboratories.
± gives the spread as reported.

Compound	assay	system	setting	how to read	quantity	result
COc1cc(C(=O)N2CCC3(CC2)CC(=O)c2c(cnn2C(C)C)C3)cc(-c2ccc(C(=O)O)cc2)n1	refers to: total cholesterol	human, fasting serum	10 mg every 12 h, day 13, adjusted geometric mean	reference: baseline	percentage change from baseline	-3.9%
Cn1c(C(F)(F)F)cc(=O)n(-c2cc(Oc3cccnc3OCC(=O)O)c(Cl)cc2F)c1=O	–	Crl:CD(SD) rats, female, plasma	oral diet, 300 ppm in diet, day 1, 90-day toxicity study	–	AUC(0-24 h)	6240 ng·h/mL
CCc1cc(C(=O)NC)c2nccc(N3CCc4c(cc(Cn5ccnc5)cc4-c4cn(C)nc4C(F)(F)F)C3=O)c2c1	refers to: TP	Sprague Dawley rat	oral, 100 mg/kg once daily, 7 days	reference: vehicle	change in clinical chemistry or haematology parameter	-2.1%
CCO[C@H]1CCN(Cc2c(OC)cc(C)c3[nH]ccc23)[C@H](c2ccc(C(=O)O)cc2)C1	–	PNH patients, active haemolysis	oral, 25 mg, 4 weeks, treatment	–	incidence upper respiratory infection	0%
O=C(O)C1Cc2nnc(CNS(=O)(=O)c3cccc(Cl)c3O)n2C1 (stereo not drawn)	colloidal aggregate formation, dynamic light scattering	50 mM potassium phosphate buffer	200 µM, pH 7.0, 1% DMSO	higher = more aggregation	DLS scattered light intensity	1.22e+08 counts/s
O=C(COc1ccc(Cl)cc1)NC12CC(c3nnc([C@H]4C[C@@H](OC(F)(F)F)C4)o3)(C1)C2	refers to: Myalgia	healthy humans, both sexes	oral, 15 mg, single ascending dose	reference: subjects	treatment-emergent adverse events	16.7%
Cc1c(C(=O)O)ccc2c3n(nc12)[C@@H]1[C@H](C3)N(CC2CC2)[C@@]2(C(=O)Nc3cc(Cl)ccc32)[C@H]1c1cccc(Cl)c1F	–	human patients phase Ia	oral, dose not given, grade ≥3, all patients	–	gastroesophageal reflux incidence	0%
Cc1c(C(=O)O)ccc2c3n(nc12)[C@@H]1[C@H](C3)N(CC2CC2)[C@@]2(C(=O)Nc3cc(Cl)ccc32)[C@H]1c1cccc(Cl)c1F	–	female BALB/c nude mice, SJSA-1 xenograft, plasma	oral, 2 mg/kg once daily, individual animals	–	AUC(0-t)	28.3 µM·h
Cc1ccc2cccc(C(=O)O)c2c1	haemolysis	sheep erythrocytes	1 h, pH 7.5	–	HC50	> 128 µg/mL
O=S(=O)(NC1(c2ccc3c(c2)OCO3)CC1)c1cccc(Cl)c1O	colloidal aggregate formation, dynamic light scattering	50 mM potassium phosphate buffer	200 µM, pH 7.0, 1% DMSO	higher = more aggregation	DLS scattered light intensity	903000 counts/s
NS(=O)(=O)c1cc(C(=O)O)c(NCc2ccco2)cc1Cl	refers to: respiratory, thoracic, mediastinal disorders	healthy men	oral, 8 days, treatment-emergent, crossover trial	–	subjects with adverse event	0%
CCO[C@H]1CCN(Cc2c(OC)cc(C)c3[nH]ccc23)[C@H](c2ccc(C(=O)O)cc2)C1	–	human moderate hepatic impairment, plasma	oral, 200 mg single dose, geometric mean	–	total Cmax	3230 ng/mL
O=C1NCCc2nc(OCc3cccc(F)c3)ccc21	modified Irwin test	Sprague-Dawley rat, male	oral, 100 mg/kg, 30 min	higher = stronger effect	corneal reflex loss score	0
C[C@@H](Nc1cc(F)cc(F)c1)c1cc(C(=O)N(C)C)cc2c(=O)cc(N3CCOCC3)oc12	–	human	60 mg twice daily, vistusertib alone, geometric LSM	–	AUC(0-12)	1560 ng·h/mL
CC(C)(Sc1ccncc1-c1ccc(C#N)c2ccccc12)C(=O)O	–	human, urine	oral, 10 mg, added: febuxostat 40 mg	–	fraction excreted in urine (0-24 h)	1.53%
O=C(CCc1nncn1-c1ccccc1)NCc1nocc1C(=O)O	colloidal aggregate formation, dynamic light scattering	50 mM potassium phosphate buffer	200 µM, pH 7.0, 1% DMSO	higher = more aggregation	DLS scattered light intensity	3.14e+06 counts/s
Oc1ccc(/C=C/c2cc(O)cc(O)c2)cc1	–	rat, azoxymethane-injected, blood	in vivo, 10 mg/kg, at sacrifice	–	r-GT level	< 3 IU/L
CCc1ccc(-c2ccc(-c3cc(F)c(F)c(F)c3)c(F)c2)cc1	refers to: compound	human pregnant women, male fetuses, maternal serum	dose not given, paired maternal-cord samples, mean	–	concentration	0.81 ng/mL
N#C[C@@]1(c2ccc3c(N)ncnn23)O[C@H](CO)[C@@H](O)[C@H]1O	–	dog, plasma	oral, 5 mg/kg, solution, recalculated NCATS data	–	half-life	3.96 h
CNCCOC12CC3(C)CC(C)(CC(Cn4ncc(-c5ccc(N6CCc7cccc(C(=O)Nc8nc9ccccc9s8)c7C6)nc5C(=O)O)c4C)(C3)C1)C2	–	beagle dog, male, anaesthetised	intravenous bolus, 0.03 mg/kg, 120 min	reference: baseline	PR interval change	-9 ms
CC[C@H](C)[C@H](NC(=O)[C@H](Cc1ccccc1)NC(=O)[C@H](CCC(=O)O)NC(=O)[C@H](CCCCNC(=O)COCCOCCNC(=O)COCCOCCNC(=O)CC[C@H](NC(=O)CCCCCCCCCCCCCCCCC(=O)O)C(=O)O)NC(=O)[C@H](C)NC(=O)[C@H](C)NC(=O)[C@H](CCC(N)=O)NC(=O)CNC(=O)[C@H](CCC(=O)O)NC(=O)[C@H](CC(C)C)NC(=O)[C@H](Cc1ccc(O)cc1)NC(=O)[C@H](CO)NC(=O)[C@H](CO)NC(=O)[C@@H](NC(=O)[C@H](CC(=O)O)NC(=O)[C@H](CO)NC(=O)[C@@H](NC(=O)[C@H](Cc1ccccc1)NC(=O)[C@@H](NC(=O)CNC(=O)[C@H](CCC(=O)O)NC(=O)C(C)(C)NC(=O)[C@@H](N)Cc1cnc[nH]1)[C@@H](C)O)[C@@H](C)O)C(C)C)C(=O)N[C@@H](C)C(=O)N[C@@H](Cc1c[nH]c2ccccc12)C(=O)N[C@@H](CC(C)C)C(=O)N[C@H](C(=O)N[C@@H](CCCNC(=N)N)C(=O)NCC(=O)N[C@@H](CCCNC(=N)N)C(=O)NCC(=O)O)C(C)C	QT interval corrected for heart rate, 12-lead Holter ECG	healthy human subjects	subcutaneous, 1.5 mg once weekly, 42 h post-dose, steady state	reference: placebo, time-matched baseline	placebo-subtracted change in QTcI	-7.4 ms

Compound	assay	system	setting	how to read	quantity	result
CCn1c(=O)c(-c2cc(NC(=O)Nc3ccccc3)c(F)cc2Br)cc2cnc(NC)cc21	refers to: accidental overdose	healthy human, matched to severe hepatic impairment	oral, 50 mg single dose	–	participants with grade ≥ 3 TEAE	0%
Cc1ccc(Sc2ccccc2N2CCNCC2)c(C)c1	–	healthy adult men	oral, 20 mg single dose, treatment-emergent adverse events	–	pyrexia incidence	0%
Cn1cc([C@H]2C[C@H]3CSC(N)=N[C@@]3(c3ccc(F)cc3F)CO2)cn1	–	male 129/SVE mouse, brain	subcutaneous, 3 mg/kg, 9 h	–	brain concentration	62 nM
CN1C[C@H](COc2nccc3c(NCc4ccco4)cc(Cl)nc23)OC1=O	–	rabbit, isolated Langendorff heart	dose not given	–	effect on PR	negative
Cl.[2H]C([2H])([2H])CC(=O)c1cnc(NC(=O)C2CC2)cc1Nc1cccc(-c2ncn(C([2H])([2H])[2H])n2)c1OC	–	human, fasted, multiple dose	oral, 10 mg once daily, tablet, day 14, geometric mean	–	Ctrough	11.8 ng/mL
CN1CCN=C1c1ccc(NC(=O)c2ccc(C(=O)Nc3ccc(C4=NCCN4C)cc3)cc2)cc1	haemolysis	sheep erythrocytes	1 h, pH 7.5	–	HC50	> 128 µg/mL
COc1nnc2ccc(N3CCC(c4ccc(OCCN5CCN(C)C(=O)[C@H]5C)cc4)CC3)nn12	–	cancer patients, urine	oral, dose not given, time not given	reference: dose	urinary recovery of unchanged drug	< 2%
CCN1/C(=C/C(C)=O)Sc2ccc(F)cc21	–	cynomolgus monkey	oral, 100 mg/kg, 1 h post-dose	reference: pre-dose	systolic blood pressure change	95.8 ± 2.2%
O=C(Nc1nc2cccc(-c3ccc(CN4CCS(=O)(=O)CC4)cc3)n2n1)C1CC1	refers to: infections and infestations	human rheumatoid arthritis patients	oral, 30 mg once daily, 4 weeks, regardless of relatedness	–	treatment-emergent adverse events	0%
O=C(OC(C(F)(F)F)C(F)(F)F)N1CCN(Cc2cccc(Oc3ccccc3)c2)CC1	PET blocking study	rhesus monkey, brain STR	0.03 mg/kg, compound pretreatment, added: [18F]T-401 tracer	–	k2	0.031 min⁻¹
Cc1cncc(CC(=O)Nc2cccc(Cl)c2O)c1	colloidal aggregate formation, dynamic light scattering	50 mM potassium phosphate buffer	200 µM, pH 7.0, 1% DMSO	higher = more aggregation	DLS scattered light intensity	483000 counts/s
C=CC(=O)Nc1cc(Nc2nccc(-c3cn(C)c4ccccc34)n2)c(OC)cc1N(C)CCN(C)C	storage stability	human plasma	30 d, -80 °C, HQC level	–	recovery	93.5%
O=c1[nH]c(=O)n([C@H]2C[C@H](O)[C@@H](CO)O2)cc1CCCCC[18F]	–	tumour-bearing nude mice, blood	intravenous, dose not given, 2 min	–	blood activity	10.6 ± 4.11 %ID/g
FC(F)(F)c1ccc(CNc2ccc(Cc3c[nH]c4ncc(Cl)cc34)cn2)cn1	refers to: weight increased	human, advanced solid tumours, non-TGCT cohort	oral, 1000 mg/day, any grade	–	treatment-related adverse events	0%
C[C@@H](Oc1ccc(S(C)(=O)=O)cc1C(=O)N1C[C@@H]2C[C@]2(c2cc(C(F)(F)F)on2)C1)C(F)(F)F	–	human	oral, 25 mg	–	subjects with infections and infestations	16.7%
CO[C@H]1CC[C@H](N2C(=O)CNc3ncc(-c4ccc(C(C)(C)O)nc4)nc32)CC1	–	patients, urine	oral, 45 mg, day -1, geometric mean	–	urinary excretion Ae(0-24 h)	81300 ng
C#Cc1cccc(Nc2ncnc3cc(OCCOC)c(OCCOC)cc23)c1	–	human, plasma	oral	–	conversion to OSI-420	~10%
CCNCCCNC/C=C\CNCCCNCC	LC-MS/MS	cancer patients, plasma	intravenous infusion, 50 mg, 60 min infusion, median, cycle 1	–	volume of distribution	29.7 L/kg
NC1(C(=O)N[C@@H](CCO)c2ccc(Cl)cc2)CCN(c2nc[nH]c3nccc2-3)CC1	–	metastatic CRPC patients	400 mg b.i.d., any grade, treatment-related, added: enzalutamide 160 mg daily	–	incidence of Hyper-glycaemia	28.6%
O=S(=O)(NCC[S+]([O-])c1ccccc1F)c1cc(Cl)cc(Cl)c1O (stereo not drawn)	colloidal aggregate formation, dynamic light scattering	50 mM potassium phosphate buffer	200 µM, pH 7.0, 1% DMSO	higher = more aggregation	DLS scattered light intensity	2.01e+06 counts/s
N#Cc1ccc2c(c1)[C@H]1CCCN(C(=O)c3ccc4[nH]cnc4c3)[C@H]1C2	–	human females	40 mg, end of trial	–	SHBG level	35.9 nmol/L
